Assay results collected from several papers.
Numbered parts are unrelated; each lists some results of a single study. Positions count from the first letter of the parent shown.

Block 1
Target: Interferon regulatory factor 7, full length, phosphomimetic (IRF7, Homo sapiens, UniProt Q92985, residues 1-503, S471D/S472D/S475D/S476D/S477D/S483D/S484D/S487D)
Sequence of UniProt Q92985 (whole entry, unmodified, looked up): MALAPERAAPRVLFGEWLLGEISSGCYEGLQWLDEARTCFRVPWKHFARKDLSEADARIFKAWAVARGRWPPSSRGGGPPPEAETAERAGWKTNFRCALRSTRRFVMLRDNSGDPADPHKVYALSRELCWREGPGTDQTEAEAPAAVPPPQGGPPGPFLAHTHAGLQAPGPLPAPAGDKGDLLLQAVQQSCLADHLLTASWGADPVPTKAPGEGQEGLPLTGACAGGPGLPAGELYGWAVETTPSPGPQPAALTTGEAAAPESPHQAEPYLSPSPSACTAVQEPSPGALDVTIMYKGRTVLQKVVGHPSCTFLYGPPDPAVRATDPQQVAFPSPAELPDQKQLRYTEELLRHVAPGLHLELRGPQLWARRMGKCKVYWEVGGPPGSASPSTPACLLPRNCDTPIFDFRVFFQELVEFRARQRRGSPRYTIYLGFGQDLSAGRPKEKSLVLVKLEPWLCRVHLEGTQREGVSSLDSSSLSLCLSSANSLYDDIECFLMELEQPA
Technique: protein-binding microarray
Molecule type: double-stranded DNA, one strand shown
Sample: in vitro
Tested at: 2200 nM top
Setting: 60-bp whole probe
Added: salmon DNA 0.4 mg/ml
Baseline: random background probes
Reading: higher = stronger binding
Shared flanks, not repeated: GCCTAGCAC … GTCTTGATTCGCTTGACGCTGCTG
| Oligonucleotide | fitted relative affinity [z-score] |
| --- | --- |
| TTAGGACTCGACTTTCGGTTAGTGCTA | 5.99 |
| GAGGGTTTCCTTTTCCTGACGTGCTAG | 3.07 |
| TTAGGTATCCTACTCCTTTAGTGCTAG | 0.99 |
| GACGATTACAGTTTCGAGACGTGCTAG | 3.21 |
| CCTACCGCCCTTACCGCCGCGTGCTAG | -0.0142 |
| GACGGACTGGACACTGGCGACGTGCTA | -0.612 |
| GACGGACTGGGTCTAGGGACGTGCTAG | -1.14 |
| TCACCTTAGGTTTTCTGACTGTGCTAG | 1.17 |
| GACTGTATCGGTATCGGGACGTGCTAG | 0.581 |
| TTAGGACAGGGGTTTCGGTTAGTGCTA | 2.68 |
| GCCGATTTCAGTCTCGAGACGTGCTAG | 1.51 |
| ATAAATATGAGACTGGGGATGTGCTAG | -0.206 |
| TGTAGAGTAGCTTTCTGAGGGTGCTAG | -0.119 |
| TCACCCCTCTCTTTCCAACTGTGCTAG | 2.09 |
| TCAATTTTCATTTTGTGACTGTGCTAG | 5.44 |
| TTAGGTTTCCTTTTCCTTGAGTGCTAG | 5.42 |
| TTAGGACTGCTTCTCCTTTAGTGCTAG | 0.862 |
| TTAGATTTCAGTCTCCATTAGTGCTAG | 1.07 |
| TTAGATCTCAATCTCGATTAGTGCTAG | 0.156 |

Block 2
Target: Sal-like protein 4, full length isoform A (SALL4, Homo sapiens, UniProt Q9UJQ4, residues 1-1053)
Sequence of UniProt Q9UJQ4 (whole entry, looked up): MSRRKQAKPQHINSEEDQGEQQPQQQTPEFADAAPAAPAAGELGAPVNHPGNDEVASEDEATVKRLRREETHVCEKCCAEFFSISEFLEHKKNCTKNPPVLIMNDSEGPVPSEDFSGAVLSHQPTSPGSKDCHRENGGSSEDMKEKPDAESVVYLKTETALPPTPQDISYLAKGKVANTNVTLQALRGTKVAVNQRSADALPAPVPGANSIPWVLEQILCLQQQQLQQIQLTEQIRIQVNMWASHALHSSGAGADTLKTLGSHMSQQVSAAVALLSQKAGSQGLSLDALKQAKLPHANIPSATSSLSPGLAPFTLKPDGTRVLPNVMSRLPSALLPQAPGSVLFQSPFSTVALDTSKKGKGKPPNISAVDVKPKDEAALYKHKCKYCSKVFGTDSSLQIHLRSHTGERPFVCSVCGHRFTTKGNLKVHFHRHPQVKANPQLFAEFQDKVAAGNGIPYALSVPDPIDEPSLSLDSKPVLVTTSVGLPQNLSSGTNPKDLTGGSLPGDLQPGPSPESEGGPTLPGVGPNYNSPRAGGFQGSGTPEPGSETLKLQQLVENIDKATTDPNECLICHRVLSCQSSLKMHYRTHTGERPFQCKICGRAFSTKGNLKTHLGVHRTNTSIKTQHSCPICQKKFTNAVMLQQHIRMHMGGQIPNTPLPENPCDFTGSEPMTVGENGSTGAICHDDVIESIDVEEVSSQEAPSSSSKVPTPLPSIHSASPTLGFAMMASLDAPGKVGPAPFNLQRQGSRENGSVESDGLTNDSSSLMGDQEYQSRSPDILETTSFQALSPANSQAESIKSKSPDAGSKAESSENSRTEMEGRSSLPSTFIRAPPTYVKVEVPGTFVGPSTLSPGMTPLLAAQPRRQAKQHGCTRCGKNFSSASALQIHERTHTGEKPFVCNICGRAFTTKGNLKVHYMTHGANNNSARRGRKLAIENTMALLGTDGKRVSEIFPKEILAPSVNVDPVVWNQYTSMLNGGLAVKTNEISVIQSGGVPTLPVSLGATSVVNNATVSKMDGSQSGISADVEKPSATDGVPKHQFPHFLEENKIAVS
Technique: universal PBM
Molecule type: double-stranded DNA, one strand shown
Sample: in vitro
Tested at: 600 nM
Setting: 8-mer, flanks averaged, mean of replicates
Reading: higher = stronger binding
| Oligonucleotide | E-score |
| --- | --- |
| ATTTTATC | 0.361 |
| TGCAACAA | 0.153 |
| GGATCGTA | -0.0325 |
| AACAAAAC | 0.181 |
| CTTGTGGC | -0.214 |
| AGTCTACC | -0.146 |
| CTTCTGGC | -0.147 |
| TGCCCCAA | -0.00647 |
| ACCGTCAG | -0.252 |
| ACCCCGAT | -0.164 |
| AAGGAACC | -0.121 |
| AGAGCAAC | -0.19 |
| GCCCCTCA | -0.305 |
| AGGCCCGG | -0.402 |
| TACTTGAA | 0.281 |
| CAGGAAAG | -0.0613 |
| ACAGCTGC | 0.00198 |
| ACATGTGA | 0.135 |
| ACTCGGTG | -0.209 |
| ACCATGAC | -0.148 |
| AGAAAACC | -0.00101 |
| ATCTAAGG | 0.0121 |
| GCCGTGAA | -0.105 |
| AAAGTCAG | 0.0251 |
| GCGACTCC | -0.246 |

Block 3
Target: ABI1, truncated, D143A, DHFR fusion (Arabidopsis thaliana)
Technique: DHFR PCA, deep sequencing
Sample: yeast
Setting: methotrexate growth selection, single substitutions
Added: (+)-ABA 0.11 µM
Baseline: wild-type fitted maximum
Reading: higher = stronger binding
Starting sequence: PYL1, truncated, DHFR fusion (Arabidopsis thaliana); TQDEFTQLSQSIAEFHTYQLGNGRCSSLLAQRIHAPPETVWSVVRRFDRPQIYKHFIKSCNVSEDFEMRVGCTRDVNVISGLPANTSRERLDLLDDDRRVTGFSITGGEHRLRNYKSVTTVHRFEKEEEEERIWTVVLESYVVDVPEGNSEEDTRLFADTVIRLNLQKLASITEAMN
| Substitution | relative binding score |
| --- | --- |
| Q10V | 13.4% |
| V44R | 0.345% |
| F66N | 0.526% |
| E147K | 11% |
| F5L | 49% |
| L93Y | 18.6% |
| I105V | 21.5% |
| E139N | -5.82% |
| G21L | 5.11% |
| N165S | 7.99% |
| D92I | -0.491% |
| R98M | 11.1% |
| F56L | 7.32% |
| R74D | 2.23% |
| N114E | -6.07% |
| S117N | 0.487% |
| R111F | 0.287% |

Block 4
Target: RNA binding protein fox-1 homolog 2, RRM domain, GST-SBP tag (RBFOX2, Homo sapiens, UniProt O43251-10, residues 100-194)
Technique: RNA Bind-n-Seq
Molecule type: RNA
Sample: in vitro
Tested at: 365 nM
Setting: natural RNA segment, single round, ends assumed
Baseline: no-protein control
Reading: higher = stronger binding
Shared flanks, not repeated: GGGAGUUCUACAGUCCGACGAUC … UGGAAUUCUCGGGUGCCAA
Construct (chain): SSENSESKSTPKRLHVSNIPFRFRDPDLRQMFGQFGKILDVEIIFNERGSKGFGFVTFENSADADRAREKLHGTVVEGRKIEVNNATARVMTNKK
| Oligonucleotide | RBNS enrichment (R) |
| --- | --- |
| CAGGUCAUUCCUUGGCUAAGCCUUCGAGCUCCCUUAUACCCAUGCUAUCUGGUUUGACAAUUCCAUAUAUGGCAGUGGUGGUCUUCACUGAUGGUUGCGAGUGCAGGGAC | 1.1 |
| UUGAUCUUAUUUACUUUAUGCUACCUCUCCCACACUGGUUUUAUUUGUAAUUUGCAUUUAUAUACUCAUUUUAAAUGACUUUUCAGUGUUUUUCAUAGUUUAUAAUCUGA | 0.87 |
| ACAACCACAAACCCUAUCAGAUCUAUUCACCUUUUUCAGAGCAGAUAUUUUGUAACAUUCUCUUUGCUGACCUGAAAUGACUCAUAGAUAAUACAAUCUACUUACACACA | 0.564 |
| ACUUGAUCAUUUUUAUAUUACUUUUGUAAAUAUUCUUGGCCACAUUCUACUUCAGCUCUGGAUGUGGUUACCAAGUAUCUGUAACCCUUGAGCCCCUAGACAGUAUUGCC | 0.636 |
| UAAAAAUGCAAAGCCUAUAUGUUGAGACAUUGUAUUCCUAAUUAGAUUCUCUGUCCUUUGCACAUAACUUUCUUUUAAACUUAGUUCUAACCCUAAAUCUUGACAUCAGA | 0.462 |
| AUUUAUUUUGUGUAAGUAAGGGUUUGACCUAAAAAGAGCUCACGUGCACAUUAGCAAGUGUCCUCAUGCCCGCACCCGGUUUGUGUUGUAGAUCAACUAGCCAACGCCCU | 0.211 |
| UUGAUUUGACCAGCAUGCACUCAGAUUAGCUGCUCGACAGAGGUGUCCCCUUUUCAAUGAACCAUCAUGACUGUCCCAGUGUCGGAUGCAAGGGUGCCACGGGCUCUGAA | 7.49 |
| GUACUGAGCAGUGAUAUUCUUUGUUAAUUUGGACCAUUUUCCUGCAUUGGGUGAUCAUUCACCAGUACAUUCUCAGUUUUUCUUAAUAUAUAGCAUUUAUGGUAAUCAUA | 0.897 |
| GUAAAUAGUUAUCAUUCUGGGUAACUGGUUGAAACUCUGACUUUUGGACAAGUAAUUCCUGGGGUUCUGUCUUUGGUAGCAUCACCAGGGAUAUUUGGGUGGGACAGACA | 0.291 |
| CGUUUCUUCACUUUUGCAAGGUUCCACAGAGUAAGACAUUGGGUCUAUUCCAGCUCAUUCAUUUUAUAUUGAAAAAAAUAAUUUUAAAAAUGGUGGCUUCAGCUCCAGCC | 0.788 |
| AGGAUCCAUGAAAUUCCUAGGUCAGUUGAAUAAUAACUGAACUACUGGUUUGACUGUGGAUUAUUUCCUGGGUAUUAGUGGGACCCAACAGCACAUUGCUAUUAAUAGUA | 0.47 |
| GAAAAAAGGACACUUGUAGAGUAAGUGAAAUGGAUACUACAUCUUUAAACAGCGUUUCUUCAUUGCCUGUGUAUGAGAAAAACUUGGAAGUGUGCCUGUGUAUAUAACUC | 14.3 |

Block 5
Target: RING finger protein unkempt homolog, zinc fingers 1-6, GST-SBP tag (UNK, Homo sapiens, UniProt Q9C0B0, residues 30-357)
Sequence of UniProt Q9C0B0 (30-357, looked up): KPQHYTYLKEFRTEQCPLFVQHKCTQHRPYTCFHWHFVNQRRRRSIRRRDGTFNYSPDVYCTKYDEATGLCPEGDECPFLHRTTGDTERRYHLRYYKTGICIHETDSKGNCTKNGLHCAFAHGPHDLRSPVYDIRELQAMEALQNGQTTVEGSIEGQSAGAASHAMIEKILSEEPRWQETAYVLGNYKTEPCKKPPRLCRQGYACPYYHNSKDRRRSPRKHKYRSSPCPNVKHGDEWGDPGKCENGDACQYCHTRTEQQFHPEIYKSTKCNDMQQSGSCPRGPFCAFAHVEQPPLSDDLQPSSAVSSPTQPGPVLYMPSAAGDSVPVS
Technique: RNA Bind-n-Seq
Molecule type: RNA
Sample: in vitro
Tested at: not given
Setting: RNA with constant flanks, ends assumed
Baseline: input RNA pool
Reading: higher = stronger binding
Shared flanks, not repeated: GGGAGUUCUACAGUCCGACGAUC … CAACAGAGGAUUGAGCAUCA
| Oligonucleotide | bound/input enrichment |
| --- | --- |
| GGUCACACCAGGCCUACAAGGGCAGAAGUUAAAUAAAUUGAACUAGGGCACUAAACUGAACCGUUGACAGUGUCAUUUUAUGUUGGAUUAUUAAUUACUGUUUUUCUUCCUGCUAUCUGU | 0.171 ratio |
| GAAUGGCUGGAAAGCCACCAGGAUGCGGACAUUGAAGACUUUAAAGCCAAAAAGAAGGAACCCGAAGAAAUUGUUCAGCCAAUUAUCAGCAAACUCUAUGGAAGUGGAGGCCCUCCCCCA | 0.192 ratio |
| CGCGUCCUGCGCCGGACUCGGAUUGCCAAAAACCUGGAGUUAGAACAAGUGACUGUCCCAACCGGUGUUUUACUGGUGAUCUUUGAGUCUCGCCCUGACUGUCUACCCCAGGUGGCAGCC | 0.125 ratio |
| AAAGAACUACUUGCAGAGAUAGGUUCAUUAUCUCUUCAUUGUACCAUAGAUGAGAAGCGGUCCGCUGGCUAUUGUCAAGCGUGUGAUGUUCUUGUACCUUCUUCUGAUAAUAACUCUCAA | 0.28 ratio |
| UGGCACUUGUGUAAAACUGUCCCUGCAGAUUGAGCAGGAAGUAAAAACAAAUGGAAAUGCUUCGGACCGUGGCAGGGGUGGGGGUUGCUAAGGAAAGGGUGGGAUGGGAGUGGGUAAAGA | 0.716 ratio |
| CUCAGGUGCUUGACCAAGUACUCCCAGAUCCCUAGUGUCCUGGUCAUGAACAAGGCCGAUUGUUUGAAGCAGAAGUCAGUUCUCCUGGAGCUCACGGCAGCCCUCACUGAAGGUGUGGUC | 0.224 ratio |
| GAUGAAAAGCCAGUGAGUGUUAAUGAAGUACCAGACUACCAUGAGGAUAUUCACACAUACCUCCGGGAAAUGGAGGUUAAAUGUAAACCUAAAGUGGGUUACAUGAAGAAACAGCCAGAC | 0.189 ratio |
| AUACCUCCAGAGAGCAGACUGUAUACUAUGCCAAAGCAUUCUCUAAAGACUUGCCAAGAGCUGCCGAAAUUCUUGCUGAUAUAAUACAAAACAGCACAUUGGGAGAAGCAGAGAUUGAAC | 0.178 ratio |
| CUGCGCUGUCCGCCCUGCGGGGGAGGAACCCGGAGCACGCAGCAGAGAUGUCAGCUUAUUUACCGGAAUUGUCCAAAGCCACAGUCAUGGUGGAUGUAGGAAAGUGGCCAAUCUUCACUC | 0.356 ratio |
| CAGCUUUCAUUACCCCUGAACUUUCUGGGAACUGUAUAUAGAGAGACUAGACAAGCACUCACCGAUAUGAACACCUUGUUUACUCUACUCAAGGUAGACACCCAAAUUAAAGACAAAGUG | 0.243 ratio |
| ACCCGUUACAUUCAGGGAACAGGUGGUGAUGAGGUUGAUGAUUCUAUGGGUGUAAAUGACACCGAUAUAAGCCUGUACGUCCCAAGAGAUGUAGAAGAGACAGGUAUCACUGUGGCCAGU | 0.174 ratio |

Some of these lines once more (block 2):
| Oligonucleotide | E-score |
| --- | --- |
| ACCGTCAG | -0.252 |
| ACCCCGAT | -0.164 |
| AAGGAACC | -0.121 |
| AGAGCAAC | -0.19 |
| GCCCCTCA | -0.305 |
| AGGCCCGG | -0.402 |
